Results collected from several papers.
Each line is one published result; not all experiments were run side by side. Converted amounts (≈) assume the structure as drawn.

For Cc1ncsc1-c1ccc([C@H](CC(=O)N2CCN(c3ccc(C#Cc4ccc(C(=O)N5CCC(n6cc(-c7ccc8c(c7)CCN8C(=O)Cc7cccc(OC(F)(F)F)c7)c7c(N)ncnc76)CC5)cc4)cn3)CC2)NC(=O)[C@@H]2C[C@@H](O)CN2C(=O)[C@@H](NC(=O)C2(F)CC2)C(C)(C)C)cc1, the half-life was > 4 h (metabolic stability; human, liver microsomes; 1 µM).
With COc1cccc(-c2n[nH]c(SCc3ccccn3)n2)c1OC the concentration was 1290 ng/mL (female Sprague-Dawley rat, plasma; oral, 10 mg/kg, 2 h, single dose).
C(=N\Nc1ccccc1)/c1ccc(-c2cccc(/C=N/Nc3ccccc3)c2)cc1 gave a haemolysis of < 25% (haemolysis; mouse; 62.5 µg/mL, 1 h).
For O=C1CC[C@H](N2Cc3cc(N4CCN(CC5CCN(c6ccc([C@@H]7c8ccc(O)cc8CC[C@@H]7c7ccccc7)cc6)CC5)CC4)ccc3C2=O)C(=O)N1, the clearance was 8.02 mL/min/kg (female Sprague-Dawley rat, plasma; intravenous, 5 mg/kg, fed).
For CC[C@@](N)(c1ccc(C(F)(F)F)c(Cl)c1)c1c2cnn(C3CC3)c(=O)c2nn1C, the kinetic solubility was 20 to 40 µM (≈ 8.52 to 17 µg/mL) (nephelometry; aqueous buffer; 30 min, pH 6.5).
The half-life of CC/C(=C(\c1ccc(O)cc1)c1ccc(OCCNC)cc1)c1ccccc1 is reported as 31 h (female C57BL/6 mouse, plasma; oral, 1 mg/kg, single dose).
For Cc1noc(C)c1Cn1cc(N2C(=O)CN(Cc3cccc(O)c3)C2=O)cn1, the concentration was 12.3 ng/mL (male Sprague-Dawley rat, plasma; oral, 10 mg/kg, 30 min).
Cc1ccc2c(c1)nc(CCc1cccc3cccnc13)n2-c1ccccc1 has a compound remaining of 1.89% (metabolic stability; rat, liver microsomes; 1.5 µM, 5 min).
With Cn1nc2c(=O)n(C3CC3)cnc2c1[C@](O)(c1cnc(C(F)(F)F)c(Cl)c1)C(F)(F)F the kinetic solubility was 80 to 160 µM (≈ 37.4 to 74.8 µg/mL) (nephelometry; aqueous buffer; 30 min, pH 6.5).
The compound remaining of Cc1ccc2c(c1)nc(/C=C/c1cccc3cccnc13)n2-c1ccccc1 is reported as 23.9% (metabolic stability; rat, liver microsomes; 1.5 µM, 30 min).
CCn1cc(C2CC2)c2c(CN3CCCC(F)(F)C3)n(C)nc2c1=O has a kinetic solubility of 80 to 160 µM (≈ 28 to 56.1 µg/mL) (nephelometry; aqueous buffer; 30 min, pH 6.5).
CCN1CCN(Cc2ccc(NC(=O)c3ccc(C)c(NC(=O)c4cncc(-c5cccs5)c4)c3)cc2C(F)(F)F)CC1 has a Tmax of 0.5 h (mouse, plasma; intraperitoneal, 30 mg/kg, single dose).
With N=C(N)N/N=C/c1ccc(-c2cccc(/C=N/NC(=N)N)c2)cc1 the haemolysis was < 20% (haemolysis; mouse; 62.5 µg/mL, 1 h).
C=CCn1c(=O)c2cnc(Nc3ccc(N4CCN(C)CC4)cc3)nc2n1-c1ccc2c(n1)[C@@](O)(CC)CC2 has a Vd of 4.4 L/kg (dog, plasma; intravenous, 3 mg/kg).
Cc1nc(-c2cnc(NC(C)C)n(C)c2=O)ccc1Oc1ccnc(-c2cnn(C)c2)c1 gave a Tmax of 2 h (female mouse, plasma; oral, 7.5 mg/kg, single dose).
CC[C@@](O)(c1ccc(C(F)(F)F)nc1)c1c2ccn(C3CC3)c(=O)c2nn1C has a kinetic solubility of 40 to 80 µM (≈ 15.7 to 31.4 µg/mL) (nephelometry; aqueous buffer; 30 min, pH 6.5).
With Nc1ccc(/N=N/c2cccc(F)c2F)c(N)n1 the half-life was ~0.5 h (metabolic stability; human, liver microsomes; 10 µM).
With Cn1nc2c(=O)n(C3CC3)ccc2c1[C@](O)(c1cnc(C(F)(F)F)c(Cl)c1)C1CC1 the kinetic solubility was < 25 µM (nephelometry; aqueous buffer; 30 min, pH 6.5).
With COc1cccc(Cn2nc(-c3ccc(CO)o3)c3ccccc32)c1 the half-life was 0.0333 h (metabolic stability; rat, liver microsomes; 1 µM, pH 7.4).
C[C@H]1COC2=C1C(=O)C(=O)c1c2ccc2c1CCCC2(C)C has a thermodynamic solubility of 16.4 µg/mL (≈ 55.3 µM) (PBS; 24 h, pH 5.5, 25 °C).
NC(=S)NN=Cc1ncccc1N has a bioavailability of 59% (human, plasma; oral).
The kinetic solubility of CCn1cc(C2CC2)c2c(CN3CCC(F)(F)C(C)(C)C3)n(C)nc2c1=O is reported as 12.5 to 25 µM (≈ 4.73 to 9.46 µg/mL) (nephelometry; aqueous buffer; 30 min, pH 6.5).
With Fc1cccc(N/N=C/c2ccc(-c3cccc(/C=N/Nc4cccc(F)c4)c3)cc2)c1 the haemolysis was < 20% (haemolysis; mouse; 15.6 µg/mL, 1 h).
For CCOC(=O)[C@@]12C[C@@H]1[C@@H](n1ccc3c(NC)nc(C#Cc4ccc(Cl)s4)nc31)[C@H](O)[C@@H]2O, the C0 was 28.8 ng/mL (male Sprague-Dawley rat, plasma; intravenous, 0.5 mg/kg).
COc1cc(C)c(Sc2cnc(NC(=O)c3ccc(N4CCN(CCCCCCCNC(=O)COc5cccc6c5C(=O)N(C5CCC(=O)NC5=O)C6=O)CC4)cc3)s2)cc1C(=O)N1CCN(C(C)=O)CC1 (stereo not drawn) has a half-life of 1.9 h (male C57BL/6 mouse, serum; intraperitoneal, 10 mg/kg, single dose).
For N#C[C@@]1(c2ccc3c(N)ncnn23)O[C@H](CO)[C@@H](O)[C@H]1O, the fraction unbound was 0.957 (dog, plasma; 100 µM).
With Cc1c(C(=O)O)ccc2c3n(nc12)[C@@H]1[C@H](C3)N(CC2CC2)[C@@]2(C(=O)Nc3cc(Cl)ccc32)[C@H]1c1cccc(Cl)c1F the Vd was 0.56 L/kg (male dog, plasma; intravenous).
COc1ccc2c(=O)n(C)c(-c3ccccc3)nc2c1 gave a concentration of 67.4 ng/g (male Sprague-Dawley rat, spleen; oral, 30 mg/kg, 4 h, single dose).
The half-life of Cc1ncsc1-c1ccc([C@H](C)NC(=O)[C@@H]2C[C@@H](O)CN2C(=O)[C@@H](NC(=O)CCOCCOCCC(=O)NCCCn2cc(-c3ccc4c(c3)CCN4C(=O)Cc3cccc(OC(F)(F)F)c3)c3c(N)ncnc32)C(C)(C)C)cc1 is reported as 0.162 h (metabolic stability; mouse, liver S9; 1 µM).
OCc1ccc(-c2nn(Cc3cccnc3)c3cccnc23)o1 gave a half-life of > 0.5 h (metabolic stability; rat, liver microsomes; 1 µM, pH 7.4).
With O=C1CC[C@H](N2Cc3c(ccc4c3OCC43CCN(C[C@@H]4CCC5(CCN(c6ccc([C@@H]7c8ccc(O)cc8CC[C@@H]7c7ccccc7)cc6)CC5)OC4)CC3)C2=O)C(=O)N1 the half-life was ~23 h (beagle dog, plasma; oral, 3 mg/kg).
CN(C(=O)n1cnc(-c2ccc[n+]([O-])c2)c1)C1CCCCC1 has an AUC(0-t) of 1890 ng·h/mL (male cynomolgus monkey, plasma; oral, 1 mg/kg).
For CCn1ccc2c([C@@](O)(CC)c3ccc(C(F)(F)F)nc3)n(C)nc2c1=O, the kinetic solubility was 40 to 80 µM (≈ 15.2 to 30.4 µg/mL) (nephelometry; aqueous buffer; 30 min, pH 6.5).
The fraction unbound of C[C@@H]1COCCN1c1cc([C@]2(O)C[C@H]3CC[C@@H](C2)O3)c2cnn(-c3cc[nH]n3)c2n1 is reported as 0.0067 (mouse, plasma).
With O=C(COc1ccc(Cl)cc1)NC12CC(c3nnc([C@H]4C[C@@H](OC(F)(F)F)C4)o3)(C1)C2 the Tmax was 4.05 h (human, plasma; oral, 100 mg, multiple doses, once daily, steady state, healthy volunteers).
CC[C@@](O)(c1cc(F)c(F)c(F)c1)c1c2ccn(C3CC3)c(=O)c2nn1C has a kinetic solubility of 50 to 100 µM (≈ 18.9 to 37.7 µg/mL) (nephelometry; aqueous buffer; 30 min, pH 6.5).
For O=C(c1ccc(F)cc1)C1CCN(CCn2c(=O)[nH]c3ccccc3c2=O)CC1, the compound remaining was 57.2% (metabolic stability; rat, liver microsomes; 15 min).
For O=C1c2ccncc2C(=O)c2c1[nH]c1ccccc21, the clearance was 13.7 mL/min (rat, plasma; intravenous, 5 mg/kg, single dose).
With COc1ccc([C@@H](O)c2cc(-c3ncnc4cc(N5CCOCC5)ccc34)c(F)cc2Cl)nn1 the Tmax was 1.16 h (human, plasma; oral, 200 mg, multiple doses, twice daily, patients).
